Experimental data of several laboratories.
Protocols differ between the studies behind these lines. “And” joins repeats or separate records; there may be more than shown. ± gives the spread as reported.
Chain of UniProt Q9BZJ7 (whole entry, looked up): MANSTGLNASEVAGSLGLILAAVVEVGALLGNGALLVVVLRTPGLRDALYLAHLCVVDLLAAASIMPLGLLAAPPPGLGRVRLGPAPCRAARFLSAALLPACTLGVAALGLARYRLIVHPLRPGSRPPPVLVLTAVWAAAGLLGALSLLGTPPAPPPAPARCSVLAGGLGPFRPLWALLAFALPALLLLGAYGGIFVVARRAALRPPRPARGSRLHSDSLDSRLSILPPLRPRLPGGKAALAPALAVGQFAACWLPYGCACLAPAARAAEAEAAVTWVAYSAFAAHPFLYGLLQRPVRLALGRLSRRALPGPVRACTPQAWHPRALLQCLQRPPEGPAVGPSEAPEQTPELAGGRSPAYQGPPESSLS
Chain of UniProt Q9UMR5 (whole entry, looked up): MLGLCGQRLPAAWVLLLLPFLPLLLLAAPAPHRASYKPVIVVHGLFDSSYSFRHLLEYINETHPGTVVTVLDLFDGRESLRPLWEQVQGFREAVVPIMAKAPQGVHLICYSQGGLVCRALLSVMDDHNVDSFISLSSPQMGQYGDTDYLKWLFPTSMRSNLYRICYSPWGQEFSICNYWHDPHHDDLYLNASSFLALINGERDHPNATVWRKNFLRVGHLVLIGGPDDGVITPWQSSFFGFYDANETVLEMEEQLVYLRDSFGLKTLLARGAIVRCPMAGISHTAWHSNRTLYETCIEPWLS
Chain of UniProt Q14680 (whole entry, looked up): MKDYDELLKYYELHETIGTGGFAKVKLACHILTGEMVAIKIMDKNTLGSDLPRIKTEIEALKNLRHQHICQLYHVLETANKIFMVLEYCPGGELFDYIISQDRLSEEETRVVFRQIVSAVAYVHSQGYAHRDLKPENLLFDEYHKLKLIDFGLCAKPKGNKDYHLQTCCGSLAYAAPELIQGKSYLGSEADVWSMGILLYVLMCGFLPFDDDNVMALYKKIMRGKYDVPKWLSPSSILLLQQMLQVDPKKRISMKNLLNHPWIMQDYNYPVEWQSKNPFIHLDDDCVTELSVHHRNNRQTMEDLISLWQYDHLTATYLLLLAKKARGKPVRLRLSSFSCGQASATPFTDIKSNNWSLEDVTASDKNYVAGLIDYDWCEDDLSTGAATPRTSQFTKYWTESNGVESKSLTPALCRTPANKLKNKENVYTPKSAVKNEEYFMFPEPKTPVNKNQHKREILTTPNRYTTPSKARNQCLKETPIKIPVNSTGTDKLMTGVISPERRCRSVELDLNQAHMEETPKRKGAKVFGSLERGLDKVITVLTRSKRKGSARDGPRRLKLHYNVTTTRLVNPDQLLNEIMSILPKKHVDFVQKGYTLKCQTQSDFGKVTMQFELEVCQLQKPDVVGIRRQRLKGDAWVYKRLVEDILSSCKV
Chain of UniProt P28562 (whole entry, looked up): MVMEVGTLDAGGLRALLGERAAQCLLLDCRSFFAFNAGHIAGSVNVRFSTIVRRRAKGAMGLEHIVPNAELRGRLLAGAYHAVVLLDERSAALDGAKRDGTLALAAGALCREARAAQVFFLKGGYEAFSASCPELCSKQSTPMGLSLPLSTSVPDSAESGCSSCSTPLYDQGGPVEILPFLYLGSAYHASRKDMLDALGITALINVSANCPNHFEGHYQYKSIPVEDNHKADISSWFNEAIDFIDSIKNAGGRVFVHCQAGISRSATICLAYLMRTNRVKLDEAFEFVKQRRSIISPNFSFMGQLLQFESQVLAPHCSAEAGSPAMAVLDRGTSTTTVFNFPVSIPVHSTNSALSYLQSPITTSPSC

| Compound | tested on | assay | test system | conditions | how to read | quantity | result |
| --- | --- | --- | --- | --- | --- | --- | --- |
| N#C[C@@]1(n2ccc(N)nc2=O)O[C@H](CO)[C@@H](O)[C@H]1O | dengue virus | viral replication, cell-based | serotype 2 |  |  | EC50 | > 20 µM |
| COCC(=O)N1CCC[C@H](C(=O)NCc2nc(-c3ccccc3)cs2)C1 | Plasmodium falciparum |  | Dd2 β5 S28L resistant |  |  | EC50 | 2.4 ± 0.58 µM |
| Cc1cc(C)c2sc(NC(=O)c3cc4ccccc4o3)nc2n1 | Usutu virus | cytopathic effect, neutral red uptake | Vero 76, TC-508 |  |  | EC50 | > 32 µM |
| CNC(=O)[C@@]12C[C@@H]1[C@@H](n1cnc3c(NCc4cccc(Cl)c4)nc(C#Cc4ccc(F)c(F)c4)nc31)[C@H](O)[C@@H]2O | Enterovirus A71 | viral replication, neutral red | Vero 76, Tainan/4643/98 |  |  | EC50 | > 15 µM |
| NCCOCC(=O)NC1CCN(S(=O)(=O)c2cc(C(=O)Nc3cc(F)c(F)c(F)c3)ccc2F)CC1 | Hepatitis B virus | viral replication, refers to: intracellular HBV DNA | HepG2.2.15 | 6 days |  | EC50 | > 10 µM |
| CCC(C)n1ncn(-c2ccc(N3CCN(c4ccc(OCC5COC(Cn6cncn6)(c6ccc(Cl)cc6Cl)O5)cc4)CC3)cc2)c1=O (stereo not drawn) | Cardiovirus A | viral replication, inhibitor |  | 72 h |  | EC50 | 0.57 ± 0.02 µM |
| CO[C@H]1C[C@@H]2CC[C@@H](C)[C@@](O)(O2)C(=O)C(=O)N2CCCC[C@H]2C(=O)O[C@H]([C@H](C)C[C@@H]2CC[C@@H](OC(=O)NCCOCCOCCOCCOCCOCCOCCOCCOCCC(=O)N3CCc4cc(Cn5nc(-c6ccc7oc(N)nc7c6)c6c(N)ncnc65)ccc4C3)[C@H](OC)C2)C[C@@H](O)[C@H](C)/C=C(\C)[C@@H](O)[C@@H](OC)C(=O)[C@H](C)C[C@H](C)/C=C/C=C/C=C/1C |  |  | patients with advanced solid tumours | intravenous, 10 mg weekly, any grade |  | decreased appetite leading to dose reduction | 0% |
| COc1ccc(/C=C/c2nc(N)[nH]c(=O)c2Br)cc1OC | parainfluenza-3 virus | virus-induced cytopathicity | Vero |  |  | EC50 | > 100 µM |
| CC[C@H](C)[C@@H]1NC(=O)[C@@H]2CCCN2C(=O)[C@H](CC(C)C)NC(=O)[C@H](CC(C)C)NC(=O)CNC(=O)[C@@H](NC(=O)[C@@H](NC(=O)[C@H](CC(=O)O)NC(=O)CNC(=O)[C@@H](NC(=O)[C@H](C)NC(=O)CNC(=O)[C@H](CCCCN)NC(=O)[C@H](CC(C)C)NC(=O)[C@H](CC(C)C)NC(=O)[C@H](CCCCN)NC(=O)CNC(=O)[C@@H](NC(=O)[C@@H](N)CC(C)C)C(C)C)C(C)C)C(C)C)CSSC[C@@H](C(=O)O)NC1=O |  | RNA-seq, refers to: Cybb mRNA | mouse traumatic brain injury, frontal cortex and hippocampus | dose not given | reference: TBI plus compound vs TBI | log2 fold change | -1.91 |
| Cn1nc2c(=O)n(C3CC3)cnc2c1[C@](O)(c1cnc(C(F)(F)F)c(Cl)c1)C(F)(F)F | Saccharomyces cerevisiae | cell growth |  |  |  | EC50 | 22 ± 9.2 µM |
| CCC(CC)COC(=O)[C@H](C)N[P@](=O)(OC[C@H]1O[C@@](C#N)(c2ccc3c(N)ncnn23)[C@H](O)[C@@H]1O)Oc1ccccc1 | human coronavirus 229E | viral replication | MRC-5 | 72 h |  | EC50 | 0.071 µM |
| CN1CCN(C(c2ccc(Cl)cc2)c2ccc(Cl)cc2)CC1 | dengue virus | viral replication, reporter virus particles | Huh-7.5.1 | 48 h |  | EC50 | 4.62 µM |
| COc1cc2c(Oc3ccc4[nH]c(C)cc4c3F)ccnc2cc1OCC1(N)CC1 |  |  | paediatric recurrent refractory sarcoma | 8 mg/kg |  | grade 3 sinus bradycardia | 0% |
| O=c1ccn([C@@H]2O[C@H](CO)[C@@H](O)[C@H]2O)c(=S)[nH]1 | Dengue virus | viral replication | BHK-21, DENV3 |  |  | EC50 | 2.1 µM |
| COCC(=O)N1CCC[C@H](C(=O)NCc2nc(-c3ccc(C#N)cc3)cs2)C1 | Plasmodium falciparum |  | Dd2 | with: WLW-vs fixed ratio 0.80:0.20 |  | EC50 | 0.0086 µM and 0.0098 µM |
| O[C@H]1[C@H]2c3cc4c(cc3CN3CCC(=C[C@@H]1O)[C@H]23)OCO4 | dengue virus | viral replication, reporter virus particles | Huh-7.5.1 | 48 h |  | EC50 | 0.0406 µM |
| COc1ccc(N2C(=O)N(c3c(C)cccc3Cl)Cc3cnc(Nc4ccc(C5CCN(C)CC5)cc4OC)nc32)nc1 | Maternal embryonic leucine zipper kinase (MELK, Homo sapiens, UniProt Q14680) | kinase activity |  | 0.5 µM |  | inhibition | 39% |
| COc1c(CCC[P+](c2ccccc2)(c2ccccc2)c2ccccc2)cc2c(c1OC)OCO2.[I-] | NCI-H460 | SRB |  |  |  | TGI | -5.34 log M |
| Nc1ncnc2c1ccn2[C@H]1[C@H](O)[C@H](O)[C@]2(CO)C[C@H]12 | Enterovirus A71 | viral replication, neutral red | Vero 76, Tainan/4643/98 |  |  | EC50 | > 100 µM |
| Cc1cc(Nc2ccc(S(F)(F)(F)(F)F)cc2)n2nc(C(C)(F)F)nc2n1 | Saccharomyces cerevisiae | cell growth |  |  |  | EC50 | > 30 µM |

| Compound | tested on | assay | test system | conditions | how to read | quantity | result |
| --- | --- | --- | --- | --- | --- | --- | --- |
| COc1cc(CCC[P+](c2ccccc2)(c2ccccc2)c2ccccc2)c(OC)c2c1OCO2.[I-] | SF-268 | SRB |  |  |  | LC50 | -4.29 log M |
| C[C@H]1CN(c2n[nH]c3nc(N[C@H]4CC[C@H](NS(=O)(=O)CCC(F)(F)F)CC4)ncc23)CCO1 | Leishmania donovani | cell growth | promastigotes, LdBOB CRK3 single knockout |  |  | EC50 | 0.007 ± 0.0001 µM |
| Oc1ccc2c3c1O[C@H]1[C@@H](O)CC[C@@]4(O)[C@@H](C2)N(CC2CCC2)CC[C@]314 | G-protein coupled receptor 62 (GPR62, Homo sapiens, UniProt Q9BZJ7) | β-arrestin recruitment, TANGO luminescence, refers to: GPR62 |  | concentration not given | reference: basal luminescence | log2 fold change | 0.494 |
| NC(=O)c1ncn([C@@H]2O[C@H](CO)[C@@H](O)[C@H]2O)n1 | Dengue virus | viral replication | BHK-21, DENV1 | 120 h |  | EC50 | 46 µM |
| O=C(O)C[C@H](NC(=O)[C@H](CC(=O)O)NC(=O)[C@H](CC(=O)O)NC(=O)[C@H](CC(=O)O)NC(=O)[C@H](CC(=O)O)NC(=O)[C@H](CC(=O)O)NC(=O)[C@H](CC(=O)O)NC(=O)[C@H](CC(=O)O)NC(=O)[C@H](CC(=O)O)NC(=O)[C@H](CC(=O)O)NC(=O)[C@H](CC(=O)O)NC(=O)[C@H](CCCCNC(=O)c1ccc(C(=O)NCCOCCOB2BBBBBB3BBBB3B2)cc1)NC(=O)CN1CCN(CC(=O)O)CCN(CC(=O)O)CCN(CC(=O)O)CC1)C(=O)O [gallium-67 labelled] |  | gamma counting | mouse, ddY, male, 6 weeks old, stomach | intravenous, 37 kBq, 3 h |  | tissue uptake | 0.07 %ID |
| N#Cc1c(Nc2ccc(F)cc2)n[nH]c1NS(=O)(=O)c1ccc2ccccc2c1 | dengue virus | viral replication | Huh-7, New Guinea C |  |  | EC50 | > 7.7 µM |
| NC(=O)c1nc(F)c[nH]c1=O | Dengue virus | viral replication | BHK-21, DENV2 | 96 h |  | EC50 | 20 µM |
| Nc1nc(CCc2ccccc2)c(Br)c(=O)[nH]1 | parainfluenza-3 virus | virus-induced cytopathicity | Vero |  |  | EC50 | > 100 µM |
| COc1cc(Nc2ncc(F)c(Nc3ccc4c(n3)NC(=O)C(C)(C)O4)n2)cc(OC)c1OC | Dual specificity protein phosphatase 1 (DUSP1, Homo sapiens, UniProt P28562) | phosphatase activity, inhibitor |  |  |  | IC50 | > 10 µM |
| C[C@@H](O)[C@@H](CO)NC(=O)[C@@H](CCCNC(=N)N)NC(=O)[C@@H]1CCCN1C(=O)[C@@H]1CSSC[C@H](NC(=O)[C@H](Cc2ccccc2)NC(=O)CN2CCN(CC(=O)O)CCN(CC(=O)O)CCN(CC(=O)O)CC2)C(=O)N[C@@H](Cc2ccc(O)cc2)C(=O)N[C@@H](Cc2ccccc2)C(=O)N[C@@H](CCC(N)=O)C(=O)N[C@@H](CC(N)=O)C(=O)N1 [gallium-68 labelled] |  |  | healthy Wistar rat, adrenals | intravenous, 8 MBq, 30 min, individual animals |  | tissue uptake | 0.47 %ID/g |
| CCCCc1nc(N)[nH]c(=O)c1Br | parainfluenza-3 virus | virus-induced cytopathicity | Vero |  |  | EC50 | > 100 µM |
| O=C(c1ccc(Cl)cc1)N1CCN2C(=O)N(OC(=O)N3CCOc4ccccc43)C(=O)C2C1 (stereo not drawn) | PPT2 (Homo sapiens, UniProt Q9UMR5) | enzyme activity, inhibitor, MS-based ABPP | SW-620 conditioned medium | 10 µM, 1 h, 37 °C | reference: compound over DMSO, lower = stronger inhibition | median ratio | 1.91 |
| CC[C@H](C)[C@H](NC(=O)[C@H](Cc1ccccc1)NC(=O)[C@H](CCC(=O)O)NC(=O)[C@H](CCCNC(=N)N)NC(=O)[C@H](C)NC(=O)[C@H](C)NC(=O)[C@H](CCC(N)=O)NC(=O)[C@H](CCC(=O)O)NC(=O)[C@H](CCC(=O)O)NC(=O)[C@H](CC(C)C)NC(=O)[C@H](Cc1ccc(O)cc1)NC(=O)[C@H](CO)NC(=O)[C@H](CO)NC(=O)[C@@H](NC(=O)[C@H](CC(=O)O)NC(=O)[C@H](CO)NC(=O)[C@@H](NC(=O)[C@H](Cc1ccccc1)NC(=O)[C@@H](NC(=O)CNC(=O)[C@H](CCC(=O)O)NC(=O)[C@H](C)NC(=O)CCc1c[nH]cn1)[C@@H](C)O)[C@@H](C)O)C(C)C)C(=O)N[C@@H](C)C(=O)N[C@@H](Cc1c[nH]c2ccccc12)C(=O)N[C@@H](CC(C)C)C(=O)N[C@H](C(=O)N[C@@H](CCCNC(=N)N)C(=O)NCC(=O)N[C@@H](CCCNC(=N)N)C(=O)N[C@@H](CCCCNC(=O)COCCOCCNC(=O)COCCOCCNC(=O)CC[C@H](NC(=O)CCCCCCCCCCCCCCCCC(=O)O)C(=O)O)C(=O)NCC(=O)NCC(=O)N[C@@H](CO)C(=O)N[C@@H](CCCCNc1c(NCCCCCN(O)C(=O)CCC(=O)NCCCCCN(O)C(=O)CCC(=O)NCCCCCN(O)C(C)=O)c(=O)c1=O)C(=O)O)C(C)C [zirconium-89 labelled] |  |  | rat, blood | iv, 3 nmol/kg, 4 h, ex vivo |  | tissue uptake | 1.21 %ID/g |
| CNC(=O)[C@@]12C[C@@H]1[C@@H](n1cnc3c(NC)nc(C#Cc4ccc(Cl)s4)nc31)[C@H](O)[C@@H]2O | Enterovirus A71 | viral replication, neutral red | Vero 76, Tainan/4643/98 |  |  | EC50 | > 100 µM |
| Cc1ccc(N(c2ccc(NC(=O)CN(C)c3ccccc3N3CCCC3=O)cc2)C(C)C)cc1 | Plasmodium falciparum | parasite growth, SYBR Green | Dd2 CSC1 L800P mutant | 72 h |  | EC50 | 3.24 µM |
| CCCCCc1nc(N)[nH]c(=O)c1Br | parainfluenza-3 virus | virus-induced cytopathicity | Vero |  |  | EC50 | > 100 µM |
| CC[C@@](N)(c1cnc(C(F)(F)F)c(Cl)c1)c1c2ncn(C3CC3)c(=O)c2nn1C | Saccharomyces cerevisiae | cell growth |  |  |  | EC50 | 32 ± 0.71 µM |
| Nc1nc(CC(O)c2ccccc2C(F)(F)F)c(Br)c(=O)[nH]1 (stereo not drawn) | parainfluenza-3 virus | virus-induced cytopathicity | Vero |  |  | EC50 | > 100 µM |
| Nc1ncnc2c1ccn2[C@@]12C[C@H]1[C@H](CO)[C@@H](O)[C@H]2O | Enterovirus A71 | viral replication, neutral red | Vero 76, Tainan/4643/98 |  |  | EC50 | > 100 µM |
